Experimental data of several laboratories.
Every numbered part comes from another study and shows a few of its results, in no order. Values joined by “and” are separate records of one study, mostly repeats; a detail may differ.
UniProt Q5XXA6, sequence (whole entry, unmodified, looked up): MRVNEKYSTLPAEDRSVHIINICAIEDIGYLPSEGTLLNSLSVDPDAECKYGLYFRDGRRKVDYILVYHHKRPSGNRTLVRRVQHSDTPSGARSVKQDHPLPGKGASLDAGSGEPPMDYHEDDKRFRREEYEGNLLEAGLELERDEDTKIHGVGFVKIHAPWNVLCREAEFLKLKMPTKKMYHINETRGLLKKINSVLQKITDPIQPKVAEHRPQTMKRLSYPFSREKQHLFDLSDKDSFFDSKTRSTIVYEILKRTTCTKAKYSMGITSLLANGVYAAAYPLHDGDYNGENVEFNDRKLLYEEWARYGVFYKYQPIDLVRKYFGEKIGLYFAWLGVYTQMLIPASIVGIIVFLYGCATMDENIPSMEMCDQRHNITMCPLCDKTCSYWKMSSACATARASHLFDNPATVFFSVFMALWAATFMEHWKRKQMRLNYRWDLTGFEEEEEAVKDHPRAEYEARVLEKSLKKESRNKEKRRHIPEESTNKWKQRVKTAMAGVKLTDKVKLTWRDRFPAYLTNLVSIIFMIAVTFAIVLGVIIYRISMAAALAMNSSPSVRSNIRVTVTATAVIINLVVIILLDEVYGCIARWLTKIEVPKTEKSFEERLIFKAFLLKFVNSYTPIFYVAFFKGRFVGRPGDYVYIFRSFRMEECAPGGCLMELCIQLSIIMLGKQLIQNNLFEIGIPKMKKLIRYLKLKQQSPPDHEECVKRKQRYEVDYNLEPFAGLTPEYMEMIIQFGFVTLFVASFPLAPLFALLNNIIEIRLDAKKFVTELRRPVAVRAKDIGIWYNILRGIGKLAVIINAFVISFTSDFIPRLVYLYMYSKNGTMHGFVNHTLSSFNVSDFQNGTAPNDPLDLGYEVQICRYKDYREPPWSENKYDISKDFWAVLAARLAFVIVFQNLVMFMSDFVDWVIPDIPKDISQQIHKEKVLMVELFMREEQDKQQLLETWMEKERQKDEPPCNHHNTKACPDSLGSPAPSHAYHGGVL
UniProt Q14004, sequence (whole entry, looked up): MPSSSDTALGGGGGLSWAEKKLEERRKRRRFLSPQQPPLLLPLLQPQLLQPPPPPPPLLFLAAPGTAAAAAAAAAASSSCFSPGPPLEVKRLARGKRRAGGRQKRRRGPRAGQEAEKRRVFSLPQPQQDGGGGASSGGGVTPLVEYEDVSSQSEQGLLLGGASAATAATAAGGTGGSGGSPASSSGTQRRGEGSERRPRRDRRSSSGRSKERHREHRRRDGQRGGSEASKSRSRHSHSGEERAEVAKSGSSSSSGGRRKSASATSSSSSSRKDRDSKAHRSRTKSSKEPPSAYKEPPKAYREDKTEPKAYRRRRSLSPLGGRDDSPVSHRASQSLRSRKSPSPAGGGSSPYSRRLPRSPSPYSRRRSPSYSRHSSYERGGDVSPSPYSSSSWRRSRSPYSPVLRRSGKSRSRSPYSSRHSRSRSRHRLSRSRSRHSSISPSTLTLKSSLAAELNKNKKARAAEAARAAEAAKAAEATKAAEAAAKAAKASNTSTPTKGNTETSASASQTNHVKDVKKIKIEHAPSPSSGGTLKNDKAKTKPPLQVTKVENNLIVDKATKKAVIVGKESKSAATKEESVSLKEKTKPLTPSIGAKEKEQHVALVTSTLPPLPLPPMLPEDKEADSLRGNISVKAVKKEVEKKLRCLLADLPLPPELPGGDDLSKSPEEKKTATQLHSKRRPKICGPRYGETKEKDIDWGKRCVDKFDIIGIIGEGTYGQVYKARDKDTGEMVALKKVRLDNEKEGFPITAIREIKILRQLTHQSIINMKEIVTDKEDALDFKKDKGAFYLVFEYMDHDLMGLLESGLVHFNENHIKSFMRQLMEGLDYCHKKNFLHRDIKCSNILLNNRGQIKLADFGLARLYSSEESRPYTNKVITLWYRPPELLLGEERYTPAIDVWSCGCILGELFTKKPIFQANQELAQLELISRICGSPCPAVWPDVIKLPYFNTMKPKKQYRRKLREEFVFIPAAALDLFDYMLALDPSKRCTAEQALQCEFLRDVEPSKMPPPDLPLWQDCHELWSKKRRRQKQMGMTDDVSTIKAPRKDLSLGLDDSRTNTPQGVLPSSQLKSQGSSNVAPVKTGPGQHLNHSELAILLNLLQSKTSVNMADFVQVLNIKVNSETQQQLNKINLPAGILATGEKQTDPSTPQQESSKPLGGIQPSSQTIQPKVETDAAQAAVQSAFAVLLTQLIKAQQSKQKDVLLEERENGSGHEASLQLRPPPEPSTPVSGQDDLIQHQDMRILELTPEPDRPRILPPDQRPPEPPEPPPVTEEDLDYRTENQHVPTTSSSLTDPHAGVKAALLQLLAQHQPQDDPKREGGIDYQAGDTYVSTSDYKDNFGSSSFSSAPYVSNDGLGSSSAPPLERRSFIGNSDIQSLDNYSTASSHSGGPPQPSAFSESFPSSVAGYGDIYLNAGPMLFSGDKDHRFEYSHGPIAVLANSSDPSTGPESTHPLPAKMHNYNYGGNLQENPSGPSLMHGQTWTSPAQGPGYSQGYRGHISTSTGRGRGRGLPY
UniProt P49759, sequence (whole entry, looked up): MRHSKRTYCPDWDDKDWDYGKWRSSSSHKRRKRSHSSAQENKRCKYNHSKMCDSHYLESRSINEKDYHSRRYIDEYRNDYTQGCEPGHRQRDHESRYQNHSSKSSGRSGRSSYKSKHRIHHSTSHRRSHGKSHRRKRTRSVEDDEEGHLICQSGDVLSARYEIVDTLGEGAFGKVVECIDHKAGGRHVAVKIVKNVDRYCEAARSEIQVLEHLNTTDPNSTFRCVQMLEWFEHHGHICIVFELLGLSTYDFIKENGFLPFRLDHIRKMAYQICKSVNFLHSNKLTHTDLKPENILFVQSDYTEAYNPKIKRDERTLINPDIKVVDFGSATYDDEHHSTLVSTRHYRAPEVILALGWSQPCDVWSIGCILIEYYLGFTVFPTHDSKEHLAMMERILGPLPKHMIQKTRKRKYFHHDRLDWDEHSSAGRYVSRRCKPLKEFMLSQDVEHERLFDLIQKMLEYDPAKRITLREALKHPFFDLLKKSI
UniProt P27037, sequence (whole entry, looked up): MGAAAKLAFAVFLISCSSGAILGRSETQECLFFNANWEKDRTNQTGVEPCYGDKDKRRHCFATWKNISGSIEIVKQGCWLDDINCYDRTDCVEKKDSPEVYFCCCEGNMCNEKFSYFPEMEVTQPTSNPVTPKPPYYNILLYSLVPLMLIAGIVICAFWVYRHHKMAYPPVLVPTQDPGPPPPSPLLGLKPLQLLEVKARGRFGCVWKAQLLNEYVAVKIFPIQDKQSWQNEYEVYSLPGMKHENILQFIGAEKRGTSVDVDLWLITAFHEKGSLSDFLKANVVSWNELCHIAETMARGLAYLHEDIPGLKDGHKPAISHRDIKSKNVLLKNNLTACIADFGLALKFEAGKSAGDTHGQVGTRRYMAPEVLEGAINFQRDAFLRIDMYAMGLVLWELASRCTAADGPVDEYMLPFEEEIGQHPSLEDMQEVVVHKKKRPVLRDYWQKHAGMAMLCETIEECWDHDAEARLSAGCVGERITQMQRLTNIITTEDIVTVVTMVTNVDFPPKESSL
UniProt P11802, sequence (whole entry, looked up): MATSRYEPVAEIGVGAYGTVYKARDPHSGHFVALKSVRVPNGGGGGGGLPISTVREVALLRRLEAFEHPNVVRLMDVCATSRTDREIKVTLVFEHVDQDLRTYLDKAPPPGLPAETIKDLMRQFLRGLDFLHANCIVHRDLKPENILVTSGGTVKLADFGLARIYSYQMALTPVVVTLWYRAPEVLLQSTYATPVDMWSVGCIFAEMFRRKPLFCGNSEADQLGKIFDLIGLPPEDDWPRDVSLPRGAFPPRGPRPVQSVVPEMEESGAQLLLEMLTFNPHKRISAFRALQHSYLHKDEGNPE
UniProt Q13882, sequence (whole entry, looked up): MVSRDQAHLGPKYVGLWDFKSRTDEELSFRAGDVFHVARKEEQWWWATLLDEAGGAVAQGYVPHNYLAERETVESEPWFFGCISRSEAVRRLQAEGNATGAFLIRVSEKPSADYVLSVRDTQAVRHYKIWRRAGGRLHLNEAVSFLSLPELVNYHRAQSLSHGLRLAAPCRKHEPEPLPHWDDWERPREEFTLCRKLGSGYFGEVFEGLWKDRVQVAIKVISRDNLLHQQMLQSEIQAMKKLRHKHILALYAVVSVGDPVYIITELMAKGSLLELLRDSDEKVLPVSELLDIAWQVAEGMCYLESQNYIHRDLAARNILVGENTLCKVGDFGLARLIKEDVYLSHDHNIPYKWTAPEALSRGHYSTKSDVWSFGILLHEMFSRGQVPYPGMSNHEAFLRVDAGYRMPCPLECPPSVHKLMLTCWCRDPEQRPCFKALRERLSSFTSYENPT
UniProt P0C1S8, sequence (whole entry, looked up): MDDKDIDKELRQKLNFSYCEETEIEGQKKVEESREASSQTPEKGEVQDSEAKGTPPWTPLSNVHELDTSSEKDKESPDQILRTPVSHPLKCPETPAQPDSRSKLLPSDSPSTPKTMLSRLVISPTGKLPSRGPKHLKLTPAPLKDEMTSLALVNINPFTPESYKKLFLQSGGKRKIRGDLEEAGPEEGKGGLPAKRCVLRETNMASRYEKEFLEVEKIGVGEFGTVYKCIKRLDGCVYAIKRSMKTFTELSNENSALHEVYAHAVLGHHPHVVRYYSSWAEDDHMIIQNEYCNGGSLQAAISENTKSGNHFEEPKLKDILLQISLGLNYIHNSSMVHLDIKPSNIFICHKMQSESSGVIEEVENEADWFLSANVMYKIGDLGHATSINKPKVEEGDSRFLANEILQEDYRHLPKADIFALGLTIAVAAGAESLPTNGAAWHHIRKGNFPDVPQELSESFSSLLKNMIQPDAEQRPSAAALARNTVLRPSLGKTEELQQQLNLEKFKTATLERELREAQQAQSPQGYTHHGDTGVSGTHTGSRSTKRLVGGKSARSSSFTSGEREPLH

Block 1
Compound: C[C@@H]1CN(c2cc(-c3n[nH]c4ccc(OC5(C)CC5)cc34)ncn2)C[C@H](C)O1
Observed: cell-free assay
Method: competition with immobilised ligand
Concentration: 0.1 µM
| target | remaining binding [%] |
| --- | --- |
| ALK (Homo sapiens, UniProt Q9UM73, C1156Y) | 89 |
| DYRK1A (Homo sapiens, UniProt Q13627) | 95 |
| ACVR2A (Homo sapiens, UniProt P27037) | 94 |
| TRPM6 (Homo sapiens, UniProt Q9BX84) | 64 |
| TNIK (Homo sapiens, UniProt Q9UKE5) | 100 |
| PTK6 (Homo sapiens, UniProt Q13882) | 100 |
| CLK1 (Homo sapiens, UniProt P49759) | 86 |
| FLT3 (Homo sapiens, UniProt P36888, R834Q) | 78 |
| PAK2 (Homo sapiens, UniProt Q13177) | 95 |
| CDK13 (Homo sapiens, UniProt Q14004) | 84 |
| WEE2 (Homo sapiens, UniProt P0C1S8) | 100 |
| Cyclin-dependent kinase 4, with cyclin D1 (CDK4, Homo sapiens, UniProt P11802) | 97 |
| CAMK1D (Homo sapiens, UniProt Q8IU85) | 100 |
| Tyrosine-protein kinase ABL1, non-phosphorylated (ABL1, Homo sapiens, UniProt P00519, H396P) | 96 |
| Ribosomal protein S6 kinase alpha-3, N-terminal kinase domain (RPS6KA3, Homo sapiens, UniProt P51812) | 73 |

Block 2
Species: human
Sample: microsomes or S9
Concentration: 2 µM
Time: 0.5 h
| Compound | remaining compound [%] |
| --- | --- |
| O=C1CC(c2ccc3c(c2)OCO3)c2c(n[nH]c2-c2ccccc2)N1 (stereo not shown) | 22.4 |
| CC(C)c1ccc(CCCNS(C)(=O)=O)cc1 | 63.7 |
| CCOc1ccc(OCC)c(NC(=O)c2cc(S(=O)(=O)N3CCc4ccccc43)cn2C)c1 | 3.06 |
| CCOCCCn1nnc2c(O)nc(C(=O)NCc3cccc(Cl)c3)nc21 | 42.2 |
| COc1ccc(N2C(=O)CC(NNC(=O)c3cc(C(F)(F)F)n[nH]3)C2=O)cc1 (stereo not shown) | 29.2 |

Block 3
Compound: C=CCc1ccc(O)c(-c2cc(CC=C)ccc2O)c1
Observed: chloride current
Method: whole-cell voltage clamp
| target | assay | conditions | IC50 |
| --- | --- | --- | --- |
| Anoctamin-1 (ANO1, Homo sapiens, UniProt Q5XXA6, del476-501/E649K) | inhibitor | E623K mutant at -100 mV | 165 µM |
| Anoctamin-1 (ANO1, Homo sapiens, UniProt Q5XXA6, del476-501/F807A) |  | membrane voltage -80 mV | 25.7 µM |
| Anoctamin-1 (ANO1, Homo sapiens, UniProt Q5XXA6, del476-501/R541D) | inhibitor | mutant R515D | 187 µM |
| Anoctamin-1 (ANO1, Homo sapiens, UniProt Q5XXA6, del476-501/R561A) |  | membrane voltage -100 mV | 46.8 µM |
| Anoctamin-1 (ANO1, Homo sapiens, UniProt Q5XXA6, del476-501/R541K) | inhibitor | R515K mutant at -40 mV | 17.1 µM |

Block 4
Cell line: HaCaT
Concentration: 100 µM
Time: 18 h
| SMILES | viability |
| --- | --- |
| C=CCN1CCCC1CNC(=O)c1cc2[nH]nnc2cc1OC (stereo not shown) | 96.2% |
| CN1CCN(CCCN2c3ccccc3Sc3ccc(C(F)(F)F)cc32)CC1 | 17.1% |
| CN(C)c1cc(NC(=O)CNC(C)(C)C)c(O)c2c1C[C@H]1C[C@H]3[C@H](N(C)C)C(O)=C(C(N)=O)C(=O)[C@@]3(O)C(O)=C1C2=O | 89.3% |
| CCCCCCCCN=c1ccn(CCCCCCCCCCn2ccc(=NCCCCCCCC)cc2)cc1 | 19.8% |
| COC1=CC(=O)C[C@@H](C)[C@]12Oc1c(Cl)c(OC)cc(OC)c1C2=O | 88.4% |

Mixed results
| SMILES | cell line | assay | conditions | how to read | endpoint | result |
| --- | --- | --- | --- | --- | --- | --- |
| COc1ccc(Oc2cc(NCCC(F)(F)F)c3ncc(-c4ccc(C(=O)NC5CC5)c(C)c4)n3n2)c(F)c1F | NCI-H1048 | Vi-Cell | 12 nM, 3 d | reference: DMSO | cell count | 0.376 and 0.32 |

Some of these lines once more (block 4):
| SMILES | viability |
| --- | --- |
| CN1CCN(CCCN2c3ccccc3Sc3ccc(C(F)(F)F)cc32)CC1 | 17.1% |
| CN(C)c1cc(NC(=O)CNC(C)(C)C)c(O)c2c1C[C@H]1C[C@H]3[C@H](N(C)C)C(O)=C(C(N)=O)C(=O)[C@@]3(O)C(O)=C1C2=O | 89.3% |
| CCCCCCCCN=c1ccn(CCCCCCCCCCn2ccc(=NCCCCCCCC)cc2)cc1 | 19.8% |
| COC1=CC(=O)C[C@@H](C)[C@]12Oc1c(Cl)c(OC)cc(OC)c1C2=O | 88.4% |
